Experimental data gathered from unrelated publications.
Each line is one published result; not all experiments were run side by side. “And” joins repeats or separate records; there may be more than shown. Numbers after ± are the reported error.
T1: RNA aptamer; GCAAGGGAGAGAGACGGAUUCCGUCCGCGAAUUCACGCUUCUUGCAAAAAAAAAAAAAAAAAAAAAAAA
Chain of UniProt P10635 (whole entry, looked up): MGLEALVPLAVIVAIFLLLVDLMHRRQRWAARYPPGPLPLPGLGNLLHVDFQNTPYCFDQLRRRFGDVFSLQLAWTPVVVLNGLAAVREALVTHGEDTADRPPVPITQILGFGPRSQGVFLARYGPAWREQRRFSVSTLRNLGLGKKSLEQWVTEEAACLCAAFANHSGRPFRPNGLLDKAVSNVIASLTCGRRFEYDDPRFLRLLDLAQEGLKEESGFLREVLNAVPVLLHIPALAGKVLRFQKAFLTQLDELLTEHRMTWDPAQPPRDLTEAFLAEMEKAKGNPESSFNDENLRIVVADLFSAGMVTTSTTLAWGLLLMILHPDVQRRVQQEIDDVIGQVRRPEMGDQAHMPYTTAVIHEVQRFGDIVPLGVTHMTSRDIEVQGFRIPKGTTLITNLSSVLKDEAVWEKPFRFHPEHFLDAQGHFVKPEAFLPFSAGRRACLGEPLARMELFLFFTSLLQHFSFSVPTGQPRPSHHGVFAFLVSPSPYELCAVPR

| SMILES | target or system | assay | test system | conditions | how to read | measurement | result |
| --- | --- | --- | --- | --- | --- | --- | --- |
| CNS(=O)(=O)Nc1nccc(Cc2c(C)c3ccc(Oc4ncccc4F)cc3oc2=O)c1F | SW1573 | cell viability | – | 7 days | – | IC50 | > 1 µM |
| COC1OC(C)C(OC2OC(C)C(O)C(OC3OC(C)C(OC4OC(C)C(O)C(OC5OC(C)C(OC6OC(C)C(O)C(OC7OC(C)C(OC8OC(C)C(O)C(OC9OC(C)C(O)C(OS(=O)(=O)O)C9OS(=O)(=O)O)C8OS(=O)(=O)O)C(OS(=O)(=O)O)C7OS(=O)(=O)O)C6OS(=O)(=O)O)C(OS(=O)(=O)O)C5OS(=O)(=O)O)C4OS(=O)(=O)O)C(OS(=O)(=O)O)C3OS(=O)(=O)O)C2OS(=O)(=O)O)C(OS(=O)(=O)O)C1OS(=O)(=O)O (stereo not shown) | – | – | human plasma | 128 µg/mL | reference: control | thrombin time prolongation | 0.9 fold |
| COc1cc(O)ccc1CCC(c1ccc(O)cc1)c1cc2c(c(C)c1O)OC(c1ccc(O)cc1)CC2 (mixture of isomers) | – | – | human blood | 30 µM, together with: A23187 | – | PGE2 level | 30 ± 8 pg/mL |
| COC1OC(C)C(OC2OC(C)C(O)C(OC3OC(C)C(OC4OC(C)C(O)C(OC5OC(C)C(OC6OC(C)C(O)C(OC7OC(C)C(OC8OC(C)C(O)C(OC9OC(C)C(OC%10OC(C)C(O)C(OC%11OC(C)C(OC%12OC(C)C(O)C(OS(=O)(=O)O)C%12OS(=O)(=O)O)C(OS(=O)(=O)O)C%11OS(=O)(=O)O)C%10OS(=O)(=O)O)C(OS(=O)(=O)O)C9OS(=O)(=O)O)C8OS(=O)(=O)O)C(OS(=O)(=O)O)C7OS(=O)(=O)O)C6OS(=O)(=O)O)C(OS(=O)(=O)O)C5OS(=O)(=O)O)C4OS(=O)(=O)O)C(OS(=O)(=O)O)C3OS(=O)(=O)O)C2OS(=O)(=O)O)C(OS(=O)(=O)O)C1OS(=O)(=O)O (stereo not shown) | – | – | human plasma | 128 µg/mL | – | thrombin time | 10.5 ± 0.7 s |
| Fc1ccc(Nc2nc(NCc3ncccn3)nc(Nc3ccccc3)n2)cc1 | T1, RNA aptamer | SPR | – | 25 °C, read off a plot | – | Kd | 1.8 µM |
| CC(C)C[C@H](NC(=O)[C@@H](CCCCNC(=O)[C@@H](Cc1ccccc1)NC(=O)CCCCCNC(=O)CN1CCN(CC(=O)O)CCN(CC(=O)O)CCN(CC(=O)O)CC1)NC(=O)[C@H](Cc1ccc(O)cc1)NC(=O)[C@H](CO)NC(=O)[C@H](Cc1c[nH]c2ccccc12)NC(=O)[C@H](Cc1c[nH]cn1)NC(=O)[C@@H]1CCC(=O)N1)C(=O)N[C@@H](CCCNC(=N)N)C(=O)N1CCC[C@H]1C(=O)NCC(N)=O [indium-111 labelled] | – | – | female athymic nude mice, bone | intravenous, 0.037 MBq, 2 h | – | tissue uptake | 0.04 ± 0.01 %ID/g |
| CC(C)OCCOCc1ccc(OCC(O)CN(N=O)C(C)C)cc1 (stereo not shown) | Salmonella typhimurium | Ames test | TA1537 | 5 µg/plate, without metabolic activation | reference: solvent control | revertant fold increase | 1 fold |
| Cc1cccc2c1N(C(=O)n1ccnn1)CC2 | Arabidopsis thaliana | – | max2-1 mutant, seedlings | 5 µM, together with: (±)-GR24 1 µM | – | hypocotyl length | 8.93 mm |
| CN1CCCNC(=O)c2cccc(c2)C(=O)NCCCN(C)CCCNc2cccc3c2C(=O)c2cccc(c2C3=O)NCCC1 | SAS | RNA-Seq, item: TST mRNA | – | 1 µM, 6 h | reference: untreated cells | log2 fold change | 1.34 |
| COc1ccccc1-c1ccncc1C(=O)Nc1nnc(OCc2ccc(Cl)cc2)s1 | MDA-MB-436 BRCA1-mutant | – | – | 1.5 µM, mean of 3 replicates | reference: untreated | colony survival | 50.3% |
| CC(C)c1ccc(N(C)c2ccc3c(c2)OCC[C@H]3CNc2cnccc2C(=O)O)cc1 | NCI-H929 | cell viability, CellTiter-Glo | – | 7 days | – | IC50 | 0.0345 µM |
| COC1OC(C)C(O)C(OC2OC(C)C(O)C(OC3OC(C)C(O)C(OC4OC(C)C(O)C(OS(=O)(=O)O)C4OS(=O)(=O)O)C3OS(=O)(=O)O)C2OS(=O)(=O)O)C1OS(=O)(=O)O (stereo not shown) | – | – | human plasma | 128 µg/mL | – | thrombin time | 10.6 ± 1 s |
| O=C(NCCc1c[nH]c2cc(Cl)cc(Cl)c12)[C@@H]1CCCCN1C(=O)[C@@H]1Cc2c([nH]c3ccccc23)CN1C(=O)CCl | Peptidyl-prolyl cis-trans isomerase NIMA-interacting 1 (PIN1, Homo sapiens, UniProt Q13526) | protein denaturation, thermal shift | – | – | – | first transition share | 70% |
| COC1OC(C)C(OC2OC(C)C(O)C(OC3OC(C)C(O)C(OS(=O)(=O)O)C3OS(=O)(=O)O)C2OS(=O)(=O)O)C(OS(=O)(=O)O)C1OS(=O)(=O)O (stereo not shown) | – | – | human plasma | 128 µg/mL | – | thrombin time | 10.1 ± 0.8 s |
| Cc1ncsc1-c1ccc(C(C)NC(=O)C2CC(O)CN2C(=O)C(NC(=O)CCCCCCCCCCN2CCCC(Nc3ncc(Cl)c(Nc4ccccc4S(=O)(=O)C(C)C)n3)C2)C(C)(C)C)cc1 (stereo not shown) | 22Rv1 | RNA-seq, item: MEAK7 mRNA | – | concentration not given | reference: DMSO | log2 fold change | -1.03 |
| CNC(=O)C1CCCN(C(=O)C2CC3CCC2N3C(=O)[C@@H]2C[C@@H](O)CN2C(=O)NCc2cccc(Cl)c2F)C1 (mixture of isomers) | Cytochrome P450 2D6 (CYP2D6, Homo sapiens, UniProt P10635) | enzyme activity, inhibitor, time-dependent inhibition | – | 0.0686 µM, preincubated with NADPH | reference: negative control | remaining activity | 102% |
| CCCC[C@H](NC(=O)COCCOCCNC(=O)CN1CCN(CC(=O)O)CCN(CC(=O)O)CC1)C(=O)N[C@H]1CC(=O)NCCCC[C@@H](C(N)=O)NC(=O)[C@H](Cc2c[nH]c3ccccc23)NC(=O)[C@H](CCCNC(=N)N)NC(=O)[C@@H](Cc2ccccc2)NC(=O)[C@H](Cc2c[nH]cn2)NC1=O [technetium-99m labelled] | – | – | C57 mouse, bone | intravenous, 0.037 MBq, 2 h | – | tissue uptake | 0.24 ± 0.17 %ID/g |
| Cc1nn(-c2cccc(N)c2)c(=O)c2cnc(Nc3ccc(N4CCNCC4)cc3)nc12 | Ephrin type-B receptor 2 (EPHB2, Homo sapiens, UniProt P29323) | kinase activity, inhibitor, SelectScreen kinase profiling | – | – | – | IC50 | > 10 µM |
| Nc1ncc(-c2cc(-c3cnn(CC(F)(F)F)c3)ncc2F)nc1C(=O)NC1CNCC(F)C1 (stereo not shown) | JNK3 | KINOMEscan competition binding | – | 1 µM | reference: DMSO control | remaining binding | 100% |
| C=CC(=O)Nc1cccc(Cn2ncc3cnc(Nc4cnn(CCOC)c4)nc32)c1 | NLK human | binding, KINOMEscan | – | 100 nM | lower = stronger binding | percent of control | 100% |
| C=C(NC(=O)c1csc(-c2nc3c(cc2O)-c2nc(cs2)C(=O)NC(C(C)O)C(=O)NC(=C(C)OC)c2nc(cs2)C(=O)NC2c4nc(cs4)C(=O)NC(COC(=O)c4c5c6c(cccc6n4O)COC(=O)C(OC4CC(C)(O)C(N(C)C)C(C)O4)C2OC5)c2nc-3cs2)n1)C(N)=O (stereo not shown) | Streptococcus pneumoniae | – | -4, immunocompromised mice, lung infection | tid dosing | – | lung bacterial load at ED50 | 5.12 log CFU/g |
| CCN(CC)CC(=O)Nc1cccc(-n2cc(-c3ccc4ccc(-c5cn(-c6cccc(NC(=O)CN(CC)CC)c6)nn5)cc4c3)nn2)c1 | RCC4 | PCR angiogenesis array, item: FLT1 | – | 5 x IC50, 4 h, normoxia | reference: untreated | fold regulation | 1.06 |
| COc1cc2c(NC3CCN(C(C)C)CC3)cc(N3CCOCC3)nc2cc1OCCCN1CCCC1 | – | TMT quantitative proteomics, item: LDHB | 5xFAD mice, hippocampus | dose not given | – | normalised protein abundance | -0.029 and 0.00515 and -0.00195 and -0.0585 and -0.0465 and -0.0544 and -0.0318 and -0.0641 |
| CCN(CC)CC#CCNc1ccnc2cc(Cl)ccc12 | Salmonella typhimurium | mini-Ames test | TA1535 | 250.0 µg/well, with rat liver S9 | – | revertants | 2 revertants/well |
| COC1CN([C@H]2CC[C@H]([C@@]3(C)Oc4c(Cl)cc(C(=O)NCc5c(SC)cc(C)[nH]c5=O)c(C)c4O3)CC2)C1 | – | RNA-seq, item: PHLPP1 | human, whole blood | dose not given, 24 h | reference: pretreatment baseline | log2 fold change | 1.77 |
| C=CC(=O)N1[C@H](c2ccc3c(c2)OCO3)c2[nH]c3ccccc3c2C[C@@H]1C(=O)N1CCN(C)CC1 | human cyclin E1 N112C-3xFLAG:CDK2 | co-IP with TMT proteomics, item: CDK2 | – | concentration not given, P24941 | reference: wild type DMSO | relative co-enrichment | 102% |
| COC1OC(C)C(OC2OC(C)C(OS(=O)(=O)O)C(OC3OC(C)C(OS(=O)(=O)O)C(OS(=O)(=O)O)C3O)C2O)C(OS(=O)(=O)O)C1O (stereo not shown) | – | – | human plasma | 128 µg/mL | reference: control | thrombin time prolongation | 0.9 fold |
| COCCCCCNc1nc(NCCCCCCN(C)C)c2cc(NC(=O)/C=C/CN(C)C)ccc2n1 | Histone-lysine N-methyltransferase SETDB1 (SETDB1, Homo sapiens, UniProt Q15047) | cell-free assay, inhibitor, FP | – | 15.62 nM | – | remaining signal | 115% |

Some of these lines once more:
| SMILES | target or system | assay | test system | conditions | how to read | measurement | result |
| --- | --- | --- | --- | --- | --- | --- | --- |
| CCN(CC)CC#CCNc1ccnc2cc(Cl)ccc12 | Salmonella typhimurium | mini-Ames test | TA1535 | 250.0 µg/well, with rat liver S9 | – | revertants | 2 revertants/well |
| COc1cc2c(NC3CCN(C(C)C)CC3)cc(N3CCOCC3)nc2cc1OCCCN1CCCC1 | – | TMT quantitative proteomics, item: LDHB | 5xFAD mice, hippocampus | dose not given | – | normalised protein abundance | -0.029 and 0.00515 and -0.00195 and -0.0585 and -0.0465 and -0.0544 and -0.0318 and -0.0641 |
| CN1CCCNC(=O)c2cccc(c2)C(=O)NCCCN(C)CCCNc2cccc3c2C(=O)c2cccc(c2C3=O)NCCC1 | SAS | RNA-Seq, item: TST mRNA | – | 1 µM, 6 h | reference: untreated cells | log2 fold change | 1.34 |
